Results pooled from the literature.
Protocols differ between the studies behind these lines. ≈ marks a conversion by molar mass, not a printed value.
SBK3: Uncharacterized serine/threonine-protein kinase SBK3 (SBK3, Homo sapiens, UniProt P0C264)
Chain of UniProt P0C264 (whole entry, looked up): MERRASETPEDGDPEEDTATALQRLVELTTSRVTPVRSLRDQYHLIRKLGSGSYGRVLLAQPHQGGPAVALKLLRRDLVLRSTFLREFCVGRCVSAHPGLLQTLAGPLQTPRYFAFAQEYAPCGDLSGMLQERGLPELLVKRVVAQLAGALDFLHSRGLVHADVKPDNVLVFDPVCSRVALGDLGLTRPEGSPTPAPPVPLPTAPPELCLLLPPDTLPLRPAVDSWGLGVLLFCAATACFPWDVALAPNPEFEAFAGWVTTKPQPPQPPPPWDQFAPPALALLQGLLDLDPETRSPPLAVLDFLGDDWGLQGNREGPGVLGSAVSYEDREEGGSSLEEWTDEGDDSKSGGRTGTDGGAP
Chain of UniProt O33336 (whole entry, looked up): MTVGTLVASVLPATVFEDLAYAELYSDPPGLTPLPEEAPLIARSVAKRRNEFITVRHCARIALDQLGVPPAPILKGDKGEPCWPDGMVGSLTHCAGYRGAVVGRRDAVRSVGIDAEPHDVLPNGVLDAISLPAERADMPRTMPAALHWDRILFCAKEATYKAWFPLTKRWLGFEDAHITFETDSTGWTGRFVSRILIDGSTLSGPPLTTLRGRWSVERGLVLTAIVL
Chain of UniProt P42336 (whole entry, unmodified, looked up): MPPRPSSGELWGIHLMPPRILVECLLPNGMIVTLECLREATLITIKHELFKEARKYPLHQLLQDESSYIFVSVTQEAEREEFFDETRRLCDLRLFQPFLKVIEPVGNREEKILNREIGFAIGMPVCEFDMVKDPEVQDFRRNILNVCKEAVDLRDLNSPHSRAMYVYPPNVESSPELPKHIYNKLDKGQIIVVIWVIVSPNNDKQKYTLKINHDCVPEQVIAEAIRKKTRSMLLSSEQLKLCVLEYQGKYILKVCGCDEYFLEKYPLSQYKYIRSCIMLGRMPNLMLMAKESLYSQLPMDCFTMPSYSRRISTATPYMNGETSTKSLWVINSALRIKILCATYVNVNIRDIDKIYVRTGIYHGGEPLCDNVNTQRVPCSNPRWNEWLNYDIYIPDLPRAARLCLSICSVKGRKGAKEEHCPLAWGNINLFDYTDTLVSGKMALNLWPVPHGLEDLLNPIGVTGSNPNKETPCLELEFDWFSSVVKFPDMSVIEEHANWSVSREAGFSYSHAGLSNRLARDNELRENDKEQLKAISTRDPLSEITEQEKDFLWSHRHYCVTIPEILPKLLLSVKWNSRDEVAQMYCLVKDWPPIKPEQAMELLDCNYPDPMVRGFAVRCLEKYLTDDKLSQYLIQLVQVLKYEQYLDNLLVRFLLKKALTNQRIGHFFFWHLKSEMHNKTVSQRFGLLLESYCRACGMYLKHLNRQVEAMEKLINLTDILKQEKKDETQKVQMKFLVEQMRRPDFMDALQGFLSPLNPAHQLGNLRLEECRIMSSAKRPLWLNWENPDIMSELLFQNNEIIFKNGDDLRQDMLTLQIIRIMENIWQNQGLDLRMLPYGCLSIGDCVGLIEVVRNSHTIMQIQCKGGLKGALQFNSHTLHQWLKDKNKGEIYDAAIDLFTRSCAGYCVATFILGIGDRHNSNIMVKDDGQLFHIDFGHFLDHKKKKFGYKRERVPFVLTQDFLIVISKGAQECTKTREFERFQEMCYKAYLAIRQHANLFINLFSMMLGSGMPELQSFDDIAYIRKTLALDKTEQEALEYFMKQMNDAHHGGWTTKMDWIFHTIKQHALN
Chain of UniProt Q8TBX8 (whole entry, looked up): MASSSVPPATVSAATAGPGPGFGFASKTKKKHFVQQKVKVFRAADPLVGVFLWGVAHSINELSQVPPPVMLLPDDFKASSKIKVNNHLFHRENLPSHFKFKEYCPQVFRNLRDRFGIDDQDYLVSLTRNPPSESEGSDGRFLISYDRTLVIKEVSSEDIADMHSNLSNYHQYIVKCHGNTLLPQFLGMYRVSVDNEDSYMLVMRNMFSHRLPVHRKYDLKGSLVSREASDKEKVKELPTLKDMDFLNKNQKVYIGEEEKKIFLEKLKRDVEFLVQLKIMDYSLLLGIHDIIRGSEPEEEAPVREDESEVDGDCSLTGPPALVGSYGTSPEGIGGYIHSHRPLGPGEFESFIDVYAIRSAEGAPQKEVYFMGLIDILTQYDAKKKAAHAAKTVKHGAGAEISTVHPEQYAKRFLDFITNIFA

With `Cl.Cn1c(=O)n(CCCCN2CCC3(CC2)OCc2ccccc23)c2ccccc21` the clearance was 26.2 mL/min/kg (male Sprague-Dawley rat, plasma; intravenous, 10 mg/kg).
For `Cc1nn(C)cc1-c1nc2c(N3CCN(Cc4ccc(Cl)cc4)CC3)c(Cl)cnc2[nH]1`, the remaining binding was 15% (SBK3; binding, competition with immobilised ligand; 1 µM).
With `CCC[C@@](N)(CO)CCc1ccc(OCCCCCC(C)C)cc1` the Cmax was 33.8 nM (dog, plasma; intravenous, 0.25 mg/kg).
The fraction unbound of `CC(C)CC(=O)OC[C@H]1O[C@@](C#N)(c2ccc3c(N)ncnn23)[C@H](O)[C@@H]1O` is reported as 0.3 (dog, plasma).
The thermodynamic solubility of `CC[C@H](C)[C@H]1C(=O)N[C@@H]([C@@H](C)O)C(=O)N[C@@H](C)C(=O)N[C@@H](Cc2ccccc2)C(=O)N[C@@H](CC(C)C)C(=O)NCC(=O)N[C@@H](CC(C)C)C(=O)N2CCC[C@@H]2C(=O)N[C@H](Cc2ccc(O)cc2)C(=O)N2CCC[C@H]2C(=O)NCC(=O)N[C@@H](CCCNC(=N)N)C(=O)N1C` is reported as 768 µM (≈ 999 µg/mL) (aqueous buffer; 18 h, pH 7.4).
`N=c1c2c(-c3ccccc3)c(-c3ccccc3)n(Cc3ccccc3)c2ncn1[C@H]1CC[C@H](O)CC1` has a half-life of over 2 h (metabolic stability; human, liver microsomes; 1 µM).
For `CC(C)C[C@H](NC(=O)[C@H](Cc1ccccc1)NC(=O)[C@H](Cc1ccccc1)NC(=O)Cc1ccc(-c2ccccc2)cc1)C(=O)N[C@@H](CCCCN)C(=O)N[C@@H](CCCNC(=N)N)C(=O)N[C@H](C(=O)N[C@@H](Cc1c[nH]c2ccccc12)C(=O)N[C@@H](CCCCN)C(=O)N[C@@H](CCCNC(=N)N)C(=O)O)C(C)C`, the compound remaining was 12.6% (metabolic stability; rat, liver microsomes; 1 h).
`COc1ncccc1-c1cnn2ccc(N3CCN(C(=O)OC(C)C)CC3)nc12` gave a remaining binding of 100% (SBK3; binding, competition with immobilised ligand; 1 µM).
With `CCCC[C@@H]1NC(=O)[C@H](Cc2ccc(O)cc2)NC(=O)[C@@H]2CCCN2C(=O)[C@H](CC(=O)O)NC(=O)[C@H](C)NC(=O)[C@H](Cc2ccccc2)NC(=O)[C@@H]2CSCCC(=O)N3CN(CN(C3)C(=O)CCSC[C@@H](C(=O)N[C@@H](CNC(=O)CCc3cn(CCOCCOCCOCCN(CCOCCOCCOCCC(=O)N[C@H]4CSCCC(=O)N5CN6CN(C5)C(=O)CCSC[C@H](NC(=O)[C@@H](CC(=O)O)NC(=O)[C@H](Cc5cccc7ccccc57)NC(=O)[C@@H]5CCCN5C4=O)C(=O)N[C@@H](CCSC)C(=O)N[C@@H](CCCCNC(=N)N)C(=O)N[C@@H](CC(=O)O)C(=O)N[C@@H](Cc4c[nH]c5ccccc45)C(=O)N[C@@H](CO)C(=O)N[C@@H]([C@@H](C)O)C(=O)N4CCC[C@H]4C(=O)N4C[C@H](O)C[C@H]4C(=O)N[C@@H](Cc4c[nH]c5ccccc45)C(=O)N[C@H](C(N)=O)CSCCC6=O)CCOCCOCCOCCn4cc(CCC(=O)NC[C@H](NC(=O)[C@@H]5CSCCC(=O)N6CN7CN(C6)C(=O)CCSC[C@H](NC(=O)[C@H](Cc6ccc(O)cc6)NC(=O)[C@@H]6CCCN6C(=O)[C@@H](C)NC(=O)[C@H](CCC(=O)O)NC(=O)[C@@H]6CCCN6C(=O)[C@H](CC(C)(C)C)NC(=O)[C@@H](NC(C)=O)CSCCC7=O)C(=O)N[C@@H](Cc6ccccc6)C(=O)N[C@@H](C)C(=O)N[C@@H](CC(=O)O)C(=O)N6CCC[C@H]6C(=O)N[C@@H](Cc6ccc(O)cc6)C(=O)N[C@@H](CCCC)C(=O)N5)C(N)=O)nn4)nn3)C(N)=O)NC1=O)C(=O)CCSC[C@H](NC(C)=O)C(=O)N[C@@H](CC(C)(C)C)C(=O)N1CCC[C@H]1C(=O)N[C@@H](CCC(=O)O)C(=O)N[C@H](C)C(=O)N1CCC[C@H]1C(=O)N[C@@H](Cc1ccc(O)cc1)C(=O)N2` the Vd was 1.4 L/kg (rat, plasma; intravenous, 2 mg/kg).
`[2H]c1c([2H])c([C@]2([2H])CCCN2C(=O)C(C)(C)Oc2ccc3cn[nH]c3c2)c([2H])c([2H])c1C([2H])([2H])[2H]` has a remaining binding of 98% (PIP4K2C (Homo sapiens, UniProt Q8TBX8); binding, competition with immobilised ligand; 1 µM).
With `CC(C)C[C@H]1C(=O)N[C@@H](C)C(=O)N[C@@H](CO)C(=O)N[C@@H](C(C)C)C(=O)N(C)[C@@H](CC(C)C)C(=O)N[C@H](C)C(=O)N[C@H](C(C)C)C(=O)N2CCC[C@@H]2C(=O)N[C@H](Cc2ccc(O)cc2)C(=O)NCC(=O)N1C` the solubility was 813 µM (≈ 812 µg/mL) (aqueous buffer; 18 h, pH 7.4).
`CC(=O)NCCC(c1cccnc1)n1c(=S)[nH]c2ccc(Cl)cc2c1=O` (stereo not drawn) has an IC50 of 2.78 µM (4'-phosphopantetheinyl transferase PptT (Mycobacterium tuberculosis, UniProt O33336); enzyme activity, inhibitor, FP).
`CC[C@@H](C)[C@H]1NC(=O)[C@@H]2CCCN2C(=O)[C@H](CO)NC(=O)[C@H](CC(C)C)NC(=O)[C@H](C(C)C)NC(=O)CN(C)C(=O)[C@@H](Cc2ccc(O)cc2)NC(=O)[C@@H](Cc2ccc(O)cc2)NC(=O)CSC[C@@H](C(=O)O)NC(=O)[C@@H](CC(C)C)NC1=O` gave a solubility of 814 µM (≈ 962 µg/mL) (aqueous buffer; pH 7.4).
`Nc1ncc(-c2nc(N3CCOCC3)nc(N3CCOCC3)n2)c(C(F)F)n1` has a remaining binding of 0.05% (PIK3CA (Homo sapiens, UniProt P42336, I800L); binding, competition with immobilised ligand; 10 µM).
`NC(=O)[C@@H]1CC(F)(F)CN1C(=O)c1ccc(N2CC(F)(F)C2)c(OCC2CC2)n1` gave a Vd of 3.5 L/kg (C57BL/6 mouse, plasma; intravenous).
